Results of several laboratories.
Each line is one published result; not all experiments were run side by side. Several values in a cell are separate wells, animals, samples, runs or records.
Voltage-dependent P/Q-type calcium channel subunit alpha-1A: Voltage-dependent P/Q-type calcium channel subunit alpha-1A (Homo sapiens, UniProt O00555)
UCHL1: Ubiquitin carboxyl-terminal hydrolase isozyme L1 (UCHL1, Homo sapiens, UniProt P09936)
STK38L: Serine/threonine-protein kinase 38-like (STK38L, Homo sapiens, UniProt Q9Y2H1)
Rab GDP dissociation inhibitor beta with Rab1A: Rab GDP dissociation inhibitor beta, with Rab1A (Homo sapiens, UniProt P50395)

| Compound | target or system | test | system | conditions | scale | measurement | result |
| --- | --- | --- | --- | --- | --- | --- | --- |
| CC(=O)O[C@H]1C(=O)[C@@]2(C)[C@H]([C@H](OC(=O)c3ccccc3)[C@]3(O)C[C@H](OC(=O)[C@H](O)[C@@H](NC(=O)c4ccccc4)c4ccccc4)C(C)=C1C3(C)C)[C@]1(OC(C)=O)CO[C@@H]1C[C@@H]2O | Voltage-dependent P/Q-type calcium channel subunit alpha-1A | ion current, antagonist | HEK293 | 30 µM |  | inhibition | 7% |
| CC(=O)Nc1ccc(S(=O)(=O)Oc2ccccc2C=O)cc1 | UCHL1 | covalent, intact protein LC-MS |  | 12.5 µM |  | labelling | 15.3% |
| Nc1c(Br)cc(Br)cc1CN[C@H]1CC[C@H](O)CC1 | Voltage-dependent P/Q-type calcium channel subunit alpha-1A | ion current, antagonist | HEK293 | 3 µM |  | inhibition | 36% |
| Cc1cc(-c2ccnc3[nH]cc(F)c23)cc(F)c1[C@@]1(O)[C@H](C)CN(C2CCS(=O)(=O)CC2)C[C@@H]1C | STK38L | ATP probe binding, KiNativ, item: Lys2 site | HEK293T cell lysate | 10 µM |  | inhibition | -1.8% |
| CC[C@@H]1[C@H](F)C(=O)N[C@@H]1COc1nccc2cc(C(N)=O)c(OC)cc12 | STK38L | ATP-site probe binding, ActivX profiling | THP-1 cell lysate | 0.2 mM, Lys2 site |  | inhibition | 18.4% |
| Cc1cc(C)cc(COc2cc3c(cc2OCc2cc(C)cc(C)c2)[C@H]2C[C@](O)(Cc4cn(CC56CC7CC(CC(C7)C5)C6)nn4)C[C@H](C)N2CC3)c1 | Rab GDP dissociation inhibitor beta with Rab1A | GDI2-Rab1A interaction, NanoLuc complementation |  | 6.25 µM |  | inhibition | 95.4% |
| CNc1cc(Oc2cc(C(=O)Nc3cc(N4CCN(C)CC4)cc(C(F)(F)F)c3)ccc2C)ncn1 | LATS1 (Homo sapiens, UniProt O95835) | kinase activity |  | 1 µM |  | inhibition | -14.4% |
| O=C(O)C(O)C(O)C(=O)O.c1cnc2cc3c(cc2n1)[C@@H]1CNC[C@H]3C1 | Voltage-dependent P/Q-type calcium channel subunit alpha-1A | ion current, antagonist |  | 10 µM |  | inhibition | -5% |
| Cc1nn(-c2nc3c(F)cc(F)cc3s2)c(O)c1C(c1ccccc1C(F)(F)F)c1c(C)nn(-c2nc3c(F)cc(F)cc3s2)c1O | CGAS (Homo sapiens, UniProt Q8N884) | enzyme activity, inhibitor, pyrophosphatase-coupled |  | 50 µM, 1.5 h, added: HT-DNA |  | inhibition | 85.5% |
| CCC(C)(C)C(=O)O[C@H]1C[C@@H](C)C=C2C=C[C@H](C)[C@H](CC[C@@H]3C[C@@H](O)CC(=O)O3)[C@H]21 | Voltage-dependent P/Q-type calcium channel subunit alpha-1A | ion current, antagonist | HEK293 | 30 µM |  | inhibition | 97% |
| COc1cc(-c2cc(C(C)=O)n3ccccc23)c(OC)cc1Cn1ccnc1 | Bromodomain-containing protein 4, BD1 (BRD4, Homo sapiens, UniProt O60885) |  |  | 1 µM |  | inhibition | -2.62% |
| O=C(C1=C[C@H](C2CCCCC2)C[C@H](OCc2ccc(CO)cc2)O1)N1CCN(Cc2ccc3c(c2)OCO3)CC1 | Trypanosoma cruzi | reporter translation, Renilla luciferase mRNA translation | cell-free extract | 40 µM | relative to: DMSO | inhibition | -1.5% |
| O=C(C[C@@H](C(F)F)n1ccc(F)n1)N1CCC(O)(Cn2cnc3c(cnn3-c3ccc(F)cc3)c2=O)CC1 | USP7 (Homo sapiens, UniProt Q93009) | enzyme activity, inhibitor |  | 0.005 µM |  | inhibition | 52.5% and 37.8% |
| C#Cc1cc(-c2cc(Nc3nc(N[C@@H](C)c4ccc(F)cn4)ncc3Cl)n[nH]2)ccc1C=O | PDGFRB (Homo sapiens, UniProt P09619) | enzyme activity, inhibitor |  | 0.2 µM |  | inhibition | 101% |
| Cc1ccc(C(=O)Nc2ccc3ccccc3c2)o1 | A-type voltage-gated potassium channel KCND3 (Rattus norvegicus, UniProt Q62897) | ion current, whole-cell patch-clamp |  | 10 µM, rKv4.3 |  | inhibition | 7.02% |
| CC[C@H](C)C(=O)O[C@H]1C[C@H](O)C=C2C=C[C@H](C)[C@H](CC[C@@H](O)C[C@@H](O)CC(=O)O)[C@H]21 | Voltage-dependent P/Q-type calcium channel subunit alpha-1A | ion current, antagonist | HEK293 | 30 µM |  | inhibition | -4% |
| COC(=O)C(C#N)=Cc1cccc(F)c1 | UCHL1 | covalent, intact protein LC-MS |  | 12.5 µM |  | labelling | 15.6% |
| Cc1cc(C)cc(COc2cc3c(cc2OCc2cc(C)cc(C)c2)[C@H]2C[C@](O)(Cc4cn(CCc5ccccc5)nn4)C[C@H](C)N2CC3)c1 | Rab GDP dissociation inhibitor beta with Rab1A | GDI2-Rab1A interaction, NanoLuc complementation |  | 6.25 µM |  | inhibition | 88.9% |

Excerpt of the above:
| Compound | target or system | test | system | conditions | scale | measurement | result |
| --- | --- | --- | --- | --- | --- | --- | --- |
| Cc1cc(C)cc(COc2cc3c(cc2OCc2cc(C)cc(C)c2)[C@H]2C[C@](O)(Cc4cn(CC56CC7CC(CC(C7)C5)C6)nn4)C[C@H](C)N2CC3)c1 | Rab GDP dissociation inhibitor beta with Rab1A | GDI2-Rab1A interaction, NanoLuc complementation |  | 6.25 µM |  | inhibition | 95.4% |
